Experimental data gathered from unrelated publications.
Each numbered part is a random draw from the data of one study; scales do not carry over between parts.

Sample 1 — technique: aptamer microarray, sandwich; form: DNA with 2'F-ANA; medium: in vitro; concentration: 200 nM; together with: Cy3 exosite-II aptamer, 400 nM; reading: higher = stronger binding; strand: GGTTGGTGTGGTTGG
Target: Prothrombin, mature alpha-thrombin (F2, Homo sapiens, UniProt P00734)
Setting: whole 15-mer aptamer, many near background
Modification | mean fluorescence intensity
2'F-ANA at 2 4 5 6 7 12 14 15 | 49.6 a.u.
2'F-ANA at 2 5 6 10 11 12 13 15 | 49 a.u.
2'F-ANA at 3 5 7 10 13 15 | 58.7 a.u.
2'F-ANA at 1 2 4 6 7 8 10 11 | 68.6 a.u.
2'F-ANA at 1 2 3 6 7 8 9 11 12 15 | 339 a.u.
2'F-ANA at 2 3 7 12 13 15 | 1080 a.u.
2'F-ANA at 2 4 5 6 8 10 14 | 45.5 a.u.
2'F-ANA at 2 5 6 12 13 | 103 a.u.
2'F-ANA at 1 2 3 7 8 9 11 13 | 187 a.u.
2'F-ANA at 1 2 3 5 7 9 14 15 | 46.3 a.u.
2'F-ANA at 1 2 3 4 5 7 8 9 10 11 12 13 14 | 54.6 a.u.
2'F-ANA at 2 3 4 7 8 13 14 15 | 319 a.u.
2'F-ANA at 2 3 4 7 8 13 14 | 351 a.u.
2'F-ANA at 1 2 3 4 9 10 12 13 | 63 a.u.
2'F-ANA at 4 6 7 8 10 13 | 73.9 a.u.
2'F-ANA at 2 6 7 8 11 15 | 375 a.u.
2'F-ANA at 1 2 3 5 6 7 9 10 12 13 | 52.3 a.u.
2'F-ANA at 2 3 4 5 6 7 9 11 12 13 15 | 81.8 a.u.
2'F-ANA at 2 7 8 10 11 13 14 15 | 79.7 a.u.
2'F-ANA at 1 2 4 5 6 7 8 9 13 | 49.4 a.u.
2'F-ANA at 3 4 5 7 10 11 14 | 47.1 a.u.
2'F-ANA at 1 2 3 4 6 9 10 13 15 | 58.2 a.u.
2'F-ANA at 2 3 4 5 6 7 8 10 12 13 14 15 | 47.5 a.u.
2'F-ANA at 5 6 7 9 10 11 12 14 15 | 49.2 a.u.
2'F-ANA at 4 5 7 9 10 13 15 | 45.7 a.u.

Sample 2 — technique: protein-binding microarray; form: double-stranded DNA, one strand shown; medium: in vitro; concentration: 2540 nM top; setting: 60-bp whole probe; together with: salmon DNA 0.4 mg/ml; relative to: random background probes; reading: higher = stronger binding; shared flanks, not repeated: GCCTAGCAC … GTCTTGATTCGCTTGACGCTGCTG
Target: Interferon regulatory factor 3, full length, phosphomimetic (IRF3, Homo sapiens, UniProt Q14653, residues 1-427, S386D/S396D/S398D/S402D/T404D/S405D)
Residues (chain): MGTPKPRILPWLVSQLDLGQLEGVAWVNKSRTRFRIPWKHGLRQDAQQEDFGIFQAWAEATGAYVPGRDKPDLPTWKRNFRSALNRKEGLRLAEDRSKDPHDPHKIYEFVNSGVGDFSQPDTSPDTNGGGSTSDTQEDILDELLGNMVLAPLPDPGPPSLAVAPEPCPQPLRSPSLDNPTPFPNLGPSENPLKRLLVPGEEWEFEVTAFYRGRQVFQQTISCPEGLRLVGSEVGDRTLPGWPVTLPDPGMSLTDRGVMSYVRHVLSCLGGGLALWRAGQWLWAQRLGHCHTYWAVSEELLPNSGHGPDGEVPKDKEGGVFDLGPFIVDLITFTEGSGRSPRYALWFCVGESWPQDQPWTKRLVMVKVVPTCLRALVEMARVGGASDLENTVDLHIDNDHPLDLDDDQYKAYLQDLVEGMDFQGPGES
Strand | fitted relative affinity
TTTAGATTTTTTTTCCTAATGTGCTAG | 1.72 z-score
GACGGACTGGACTAACGGGACGTGCTA | -0.514 z-score
GTAGATATCGGGTTTCGATTAGTGCTA | 2.18 z-score
GACGGTTACGACTTTCGGGACGTGCTA | 0.756 z-score
GACGATCTCCGTATCGAGACGTGCTAG | 1.24 z-score
TTAGGTTTTGACACTGGGTTAGTGCTA | -0.324 z-score
CTCCCCTTGCTTTCCAATTCGTGCTAG | 2.61 z-score
GACGAACTGCTTATCCTGACGTGCTAG | -0.0852 z-score
TCATTTTTGCATTGCTTACTGTGCTAG | 1.33 z-score
TCAAGCCTCTGTTTTGAACTGTGCTAG | -0.402 z-score
GACGATTTCGGGACTGGCGACGTGCTA | 1.84 z-score
GACGGCATCGGTATCGGGACGTGCTAG | 0.494 z-score
GACGGTATCGACACTGCGGACGTGCTA | 0.763 z-score
GACGGCCTGGGGACTGGGGACGTGCTA | -1.27 z-score
TTAAATATCGGGACTGGATTAGTGCTA | 0.119 z-score
GGGAGCTATTAATTATTTTGGTGCTAG | -0.486 z-score
TAAGGTCTCCTTATCCTTTAGTGCTAG | 2.65 z-score
TTAGATCTCACACTGGATTAGTGCTAG | 0.0478 z-score
TCAGATTTCAGTTTCTCACTGTGCTAG | 3.57 z-score

Sample 3 — technique: RNA Bind-n-Seq; form: RNA; medium: in vitro; concentration: 200 nM; setting: whole 134-nt RNA, ends assumed; together with: 150 mM LiCl; relative to: input library; reading: higher = stronger binding; each molecule: 7-deaza-guanosine replaces G
Target: Fragile X messenger ribonucleoprotein 1, C-terminal low-complexity region (Fmr1, Mus musculus, UniProt P35922)
Shared flanks, not repeated: GGGAGUUCUACAGUCCGACGAUC … UGGAAUUCUCGGGUGUCAAGG
Strand | log2 enrichment
GCAGGAAGUAAAAACAAAUGGAAAUGCUUCGGAUAGUGGCAGGGGUGGGGGUUGCUAAGGAAAGGGUGGGAUGGGACUGGGUAAAGAGUU | 1.22
GCAGGAAGUAAAAACAAAUGGAAAUGCUUCGGAUAUUGGCAGGGGUGGGGGUUGCUAAGGAAAGGGUGGGAUGGGAGUGGGUAAAGAGUU | 1.65
UGGCCCUGGUGGCAUGCGGGGAGGAAUAGGUGGCCUCAUGGAUCGUGGUGGUCCCGGUGGAAUGUUCAGAGGUGGCCGUGGUGGAGACAG | -0.268
CCUCAAGUCCUGUGCUACACAUCGUAUGUACCGAAUCGGGAAGGGAAGGAAGGAAAGUAUUAUGUUACGCCGUUCGGAUCUGCACUUCCA | -1.69
GCAGGAAGUAAAAACAAAUGGAAAUGCUUCGGAUAGUGGCAGGGGUGGGAGUUGCUAAGGAAAGGGUGGGAUGGGAGUGGGUAAAGAGUU | 1.42
CCUGUGCUACACAUCGUAUGUACCGAAUCGGGUUUUUUGGGGUUUUUUGGGGUUUUUUGGAAAGUAUUAUGUUACGCCGUUCGGAUCUGC | 0.152
UCCCGGGCGCUAGCCCACCUCCCACCCGCCUCUUGGCUCCUCUCCUCUAGGCCGUCGCUUUCGGGUUCUCUCAUCGCUUCGUCGUUCGCC | 1.61
UGGGUGGUGGAUUUUGUUUAUUUUUUUAGCUCAUUUCCAGGGGUGGGAAUUUUUUUUUAAUAUGUGUCAUGAAUAAAGUUGUUUUUGAAA | 0.97

Sample 4 — technique: RNA Bind-n-Seq; form: RNA; medium: in vitro; concentration: 365 nM; relative to: no-protein control; reading: higher = stronger binding
Target: RNA binding protein fox-1 homolog 2, RRM domain, GST-SBP tag (RBFOX2, Homo sapiens, UniProt O43251-10, residues 100-194)
Setting: natural RNA segment, single round, ends assumed
Shared flanks, not repeated: GGGAGUUCUACAGUCCGACGAUC … UGGAAUUCUCGGGUGCCAA
Residues (chain): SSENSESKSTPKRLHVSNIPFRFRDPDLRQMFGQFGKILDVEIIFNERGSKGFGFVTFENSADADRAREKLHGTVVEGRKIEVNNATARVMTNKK
Strand | RBNS enrichment (R)
UACAUUUCUGAAAGCUUUCAAUCUUCAAGAGACAAAAAAAAUUAAAAUAACUACCCUCAGCAAACACUAGCUGUUCUGCUCAUAUAUGAAUUUUUAAUGCAGCAAUGUUG | 0.407
ACAAUGGCUUAAAUUCUUGAUUCUGCCUCAGGAGAAAGAAUAGUCUUCAUGUUUCCACUCAUCCUUCCUUUGGACCCAUCGGGGAAAAAGUCUAAAUUGGAGAUCCAGUU | 0.182
UGAAAGCAAACAAUGGCUUGUAAAGUCAUUUGAAGAGACUUUCCAAUAUGAAUUCAAAAUUCCACUCUUAUCUGAUAGUUUGAGUCAUGGUCUUAGAUACCAGCUACCUA | 0.314
CUGUGAGACAGAUGGAACCUUCACAAGGGCGCCUUUGGUUCUCUGAACAUCUCCUUUCUCUUCUUGCUUCAAUUGCUUACCCACUGCCUGCCCAGACUUUCUAUCCAGCC | 1.76
GAUUCUCAAAAGUGUGAGUCCUGGACCAGCAGCAACAGCAUCACCGGGAACUUGUUAGAAAUGCACAUUCUCAGGCCACUCCCUAGACCUACUGAAUCAGAAACCCUGGG | 0.66
UUGCUACUGACUUUACACAGUUUACAAGUUUCUCUUUGGACAUAUCUGGUAUUAUUACAGAAAUCUCCCAGAUUAUACACAUAAACAUUUUAUGGACAUUUUUUGGGCAU | 0.536
AUCUCUGUGAUAGAUUAUAUUUAUCCUAAUCUGUUGAUACCUCUGUUAAUUUGUUUUAAGAGAAUUAUAUUUUUUGGAAUUUACAGAGAAUUGCAUUCAUGGCUUUCAAU | 0.435
AACCACCCCAGUGGGGUCUACCUGGGCCGGGACACACUGUACCCACCAUGUGGGGAGCGGGAGCAGGACUACUGUGCCCUUGGCCUGACGUGUGGGGAGAGAGGAGCAUG | 0.517

Repeated from above (sample 1):
Modification | mean fluorescence intensity
2'F-ANA at 1 2 3 7 8 9 11 13 | 187 a.u.
2'F-ANA at 1 2 3 5 7 9 14 15 | 46.3 a.u.
2'F-ANA at 1 2 3 4 5 7 8 9 10 11 12 13 14 | 54.6 a.u.
2'F-ANA at 2 3 4 7 8 13 14 15 | 319 a.u.
2'F-ANA at 2 3 4 7 8 13 14 | 351 a.u.
2'F-ANA at 1 2 3 4 9 10 12 13 | 63 a.u.
2'F-ANA at 4 6 7 8 10 13 | 73.9 a.u.
